Experimental data gathered from unrelated publications.
A part holds a random share of what one study measured. Positions count from the first letter of the parent shown.

Series 1
Target: Ras GTPase-activating protein-binding protein 1, RRM domain (G3BP1, Homo sapiens, UniProt Q13283)
UniProt Q13283, sequence (whole entry, looked up): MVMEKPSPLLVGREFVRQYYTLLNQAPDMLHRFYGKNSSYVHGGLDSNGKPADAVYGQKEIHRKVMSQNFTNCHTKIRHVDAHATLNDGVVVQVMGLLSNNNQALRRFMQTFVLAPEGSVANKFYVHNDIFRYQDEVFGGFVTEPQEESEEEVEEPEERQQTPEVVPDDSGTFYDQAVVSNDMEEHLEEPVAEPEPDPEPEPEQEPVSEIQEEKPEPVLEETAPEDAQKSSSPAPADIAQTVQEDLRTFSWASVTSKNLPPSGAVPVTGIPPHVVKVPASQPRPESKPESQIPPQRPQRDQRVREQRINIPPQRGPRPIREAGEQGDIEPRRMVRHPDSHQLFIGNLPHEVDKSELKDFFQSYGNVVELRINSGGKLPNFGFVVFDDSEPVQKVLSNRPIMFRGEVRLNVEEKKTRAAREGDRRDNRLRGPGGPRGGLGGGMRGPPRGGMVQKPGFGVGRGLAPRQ
Technique: RNA Bind-n-Seq
Form: RNA
Matrix: in vitro
Tested at: 1 µM
Setting: whole 134-nt RNA, ends assumed
Added: 150 mM KCl
Reference: input library
Direction: higher = stronger binding
Sequence | log2 enrichment
GGGAGUUCUACAGUCCGACGAUCACCAUGCAGGUGGGCAUCUUUGGGAAGUGGAGCAAGGGGGGGAUAGGGAGGGGGGUAACACUUUGGGAACAGGUGGUCCCAGGUCGUUUCUGGAAUUCUCGGGUGUCAAGG | -0.543
GGGAGUUCUACAGUCCGACGAUCCAAGUCCUGUGCUACACAUCGUAUGUACCGAAUCGGCCCCGGCCCCGGGGCCCCGGAAAGUAUUAUGUUACGCCGUUCGGAUCUGCACUUUGGAAUUCUCGGGUGUCAAGG | -0.47
GGGAGUUCUACAGUCCGACGAUCUUUUAAAGUGUUCUCCACCACACUUGGGCAUUUAUCUGUUUCUUUAAAUGGCCUUCUCUGUUUCUUGUUUGCAGGCAGCUAUCAAUGGUGUGGAAUUCUCGGGUGUCAAGG | -0.173
GGGAGUUCUACAGUCCGACGAUCUCAAGUCCUGUGCUACACAUCGUAUGUACCGAAUCGGGUUUUUGGGUGGGAGGGAAAGUAUUAUGUUACGCCGUUCGGAUCUGCACUUCCUGGAAUUCUCGGGUGUCAAGG | 0.4

Series 2
Target: ABI1, truncated, D143A, DHFR fusion (Arabidopsis thaliana)
Technique: DHFR PCA, deep sequencing
Matrix: yeast
Setting: methotrexate growth selection, single substitutions
Added: (+)-ABA 4.8 µM
Reference: wild-type fitted maximum
Direction: higher = stronger binding
Starting sequence: PYL1, truncated, DHFR fusion (Arabidopsis thaliana); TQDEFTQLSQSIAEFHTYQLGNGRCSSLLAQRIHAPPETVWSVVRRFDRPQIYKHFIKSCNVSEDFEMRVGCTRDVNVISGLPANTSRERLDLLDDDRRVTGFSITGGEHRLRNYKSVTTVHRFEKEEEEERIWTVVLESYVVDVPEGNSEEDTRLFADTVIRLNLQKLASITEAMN
Change | relative binding score [%]
A13C | 53.5
A30R | 58.9
C25T | 71.7
K54C | 4.6

Series 3
Target: CCNB2, cyclin fold, Cln2 fusion (human)
Technique: yeast growth competition, sequencing
Matrix: yeast
Setting: weak parent motif
Reference: not given
Direction: higher = stronger binding
Starting sequence: ORC1 docking peptide (human); PRARKRLELGNLG
Change | normalised enrichment score
E8P | 0.641
L12N | 0.514
L9M | 0.688
R4Q | 0.00228
L9I | 0.529
L9V | 1.02

Mixed results
Substance | target | test | test system | conditions | how to read | endpoint | result
PhoQ, residues 284 288 289 292 302 303 NLALSC | PhoP, residues 12 14 15 18 19 NYFTV (Escherichia coli, UniProt P23836) | Sort-seq, measured: YFP reporter | E. coli | PhoQ-PhoP variant library, added: 10 µM Mg2+ | reference: high Mg2+ state, higher = stronger signaling | fold induction | 1.69

Some of these lines once more (series 1):
Sequence | log2 enrichment
GGGAGUUCUACAGUCCGACGAUCACCAUGCAGGUGGGCAUCUUUGGGAAGUGGAGCAAGGGGGGGAUAGGGAGGGGGGUAACACUUUGGGAACAGGUGGUCCCAGGUCGUUUCUGGAAUUCUCGGGUGUCAAGG | -0.543
GGGAGUUCUACAGUCCGACGAUCCAAGUCCUGUGCUACACAUCGUAUGUACCGAAUCGGCCCCGGCCCCGGGGCCCCGGAAAGUAUUAUGUUACGCCGUUCGGAUCUGCACUUUGGAAUUCUCGGGUGUCAAGG | -0.47
